Measurements from different studies.
Lines come from different studies, so protocols differ. ± gives the spread as reported.

CC[C@@]1(O)C(=O)OCc2c1cc1n(c2=O)Cc2cc3cc(OC(=O)CCCC(=O)NCC(=O)N[C@@H](Cc4ccccc4)C(=O)N[C@@H](Cc4ccccc4)C(=O)N[C@@H](Cc4ccc(OP(=O)(O)O)cc4)C(=O)NCCSSCCNC(=O)CCC(=O)N[C@@H](CCC(=O)O)C(=O)N[C@@H](CCCNC(=N)N)C(=O)NCC(=O)N[C@@H](CC(=O)O)C(=O)O)ccc3nc2-1
early apoptotic cells (HepG2; annexin V/PI flow cytometry; 200 nM, 48 h): 13.6%

CC/C=C\C/C=C\C/C=C\C/C=C\C/C=C\C/C=C\CCC(=O)Nc1ccn(C2OC(CO)C(O)C2(F)F)c(=O)n1 (centres unmarked)
CC50 (OVCAR-4; NCI60 screen): 57.2 µM

CCc1ccc(C(=O)N[C@@H](CO)C(=O)N[C@H](C(=O)N2CCC[C@H]2C(=O)N[C@@H](CC(N)=O)C(=O)NCC(=O)N[C@@H](CC(C)C)C(=O)O)[C@@H](C)OP(=O)(O)O)cc1
aberrant mitoses (HeLa-H2B-GFP, QQ transfected; 30 µM, 24 h): 47.9%

COc1ccc2c(c1)C(=C1Nc3ccccc3C1=NOCC(O)CO)C(=O)N2 (centres unmarked)
protein level (PANC-1 and MIA PaCa-2; Western blot, measured: survivin; concentration not given, 24 h): decreased

CC[C@H]1OC(=O)[C@H](C(C)C)NC(=O)[C@H](C)OC(=O)[C@@H](C(C)C)NC(=O)[C@@H](C(C)C)OC(=O)[C@H](C(C)C)NC(=O)[C@H](C)OC(=O)[C@@H](C(C)C)NC(=O)[C@@H](C(C)C)OC(=O)[C@H](C(C)C)NC(=O)[C@H](C)OC(=O)[C@@H](C(C)C)NC1=O
G2/M phase cells (U-87 MG; PI staining flow cytometry; 0.8 µM, 12 h): 9%

CC=CCC(C)C(O)C1C(=O)NC(CC)C(=O)N(C)C(OCC)C(=O)N(C)C(CC(C)(C)O)C(=O)NC(C(C)C)C(=O)N(C)C(CC(C)C)C(=O)NC(C)C(=O)NC(C)C(=O)N(C)C(CC(C)C)C(=O)N(C)C(CC(C)C)C(=O)N(C)C(C(C)C)C(=O)N1C (centres unmarked)
preS1 binding (HepG2-hNTCP-C4; preS1 attachment to NTCP, inhibitor; 40 µM): decreased

[Cl][Os][Ge]([Cl])([Cl])[Cl].c1ccc(P(c2ccccc2)c2ccccc2)cc1.c1ccccc1
selectivity index (Ehrlich ascites carcinoma cells; MTT; reference: IC50 PBMC over IC50 EAC): 10.3

C[C@H]1C(OCCCCCCCCCC[P+](c2ccccc2)(c2ccccc2)c2ccccc2)O[C@@H]2O[C@@]3(C)CCC4[C@H](C)CCC1[C@]42OO3 (some centres unmarked)
selectivity index (T24; MTT; 72 h; reference: HUVEC IC50 over T24 IC50): 3.07

CCCCCCCCCn1cc(C(N)(CO)CO)nn1
mRNA level (mouse hippocampal neural stem cells; measured: Map2, Gap43, Mbp, Tuj1; concentration not given, together with: Aβ42): increased

CC(C)C[C@H](NC(=O)[C@H](CCC(N)=O)NC(=O)CNC(=O)[C@H](Cc1c[nH]cn1)NC(=O)[C@H](CCC(N)=O)NC(=O)[C@H](CCCNC(=N)N)NC(=O)[C@H](CCCNC(=N)N)NC(=O)CNC(=O)CNC(=O)[C@H](CCCNC(=N)N)NC(=O)[C@H](CCCNC(=N)N)NC(=O)[C@H](CCCNC(=N)N)NC(=O)[C@H](CCC(N)=O)NC(=O)[C@H](CCCNC(=N)N)NC(=O)[C@H](CCCNC(=N)N)NC(=O)[C@H](CCCCN)NC(=O)[C@H](CCCCN)NC(=O)[C@H](CCCNC(=N)N)NC(=O)CN)C(=O)N[C@@H](Cc1c[nH]c2ccccc12)C(=O)N[C@@H](Cc1ccccc1)C(=O)N1CCC[C@H]1C(=O)N[C@@H](CCC(=O)O)C(=O)NCC(=O)N[C@@H](Cc1ccccc1)C(=O)O
viability (TALL-1; WST-8; concentration not given, 24 h): no effect

COc1cc(C(=O)NCCOCCOCCOCCNC(=O)c2ccc([18F])nc2)ccc1NC(=O)C1NC(CC(C)(C)C)C(C#N)(c2ccc(Cl)cc2F)C1c1cccc(Cl)c1F (centres unmarked)
maximal uptake (SJSA-1; 1 h): 1090 ± 84 %/mg

C[C@H]1C(OCCCCCCCC[P+](c2ccccc2)(c2ccccc2)c2ccccc2)O[C@@H]2O[C@@]3(C)CCC4[C@H](C)CCC1[C@]42OO3 (some centres unmarked)
protein level (J82 and T24; western blot, measured: PCNA; concentration not given, 48 h): decreased

COC1CC(=O)N(C)C=CCCCC(=O)N(C)C(C(C)C)C(=O)N(C)C(CC(C)C)C(=O)OC(C(C)C)CC(C)C1 (centres unmarked)
pathway activation z-score (HCT-116; RNA sequencing, measured: insulin secretion signalling pathway; 20 µM, 12 h; direction not given): 2.33

CC(C)c1cnn2c(NCc3ccccc3)cc(N[C@@H](CO)[C@H](O)CO)nc12
resistance factor (MCF7/MX (ABCG2-overexpressing); cell growth, sulforhodamine B; 72 h; reference: MCF7/MX over parental MCF7): 15 fold

O=C(O)CCC(NP(=O)(O)OCCC[C@@H](NC(=O)CCC(NC(=O)c1ccc([18F])cc1)C(=O)O)C(=O)O)C(=O)O (some centres unmarked)
surface-bound fraction (CWR22Rv1; 2 h): 5.85 ± 2.05%

CCOP(=O)(OCC)OCCCCOC(=O)CC1=C(C)C(=Cc2ccc([S+](C)[O-])cc2)c2ccc(F)cc21 (centres unmarked)
inhibition (H358; cell proliferation, BrdU incorporation; IC50 concentration, 24 h): 80%

CCCCCCCCCCCCCCCC(=O)N[C@@H](CCC(=O)NCCOCCOCCC(=O)NCCOCCOCCC(=O)NCCCC[C@H](NC(=O)[C@H](CC(=O)O)NC(=O)[C@H](CC(C)C)NC(=O)[C@H](Cc1ccc(O)cc1)NC(=O)[C@H](CCCCN)NC(=O)[C@H](CO)NC(=O)[C@H](Cc1ccc(O)cc1)NC(=O)[C@H](CC(=O)O)NC(=O)[C@H](CO)NC(=O)[C@@H](NC(=O)[C@H](Cc1ccccc1)NC(=O)[C@@H](NC(=O)CNC(=O)[C@H](CCC(N)=O)NC(=O)[C@@H](CO)NC(=O)[C@@H](N)Cc1c[nH]cn1)[C@@H](C)O)[C@@H](C)O)C(=O)N[C@@H](CCCNC(=N)N)C(=O)N[C@@H](CCCNC(=N)N)C(=O)N[C@@H](C)C(=O)N[C@@H](CCC(N)=O)C(=O)N[C@@H](CC(=O)O)C(=O)N[C@@H](Cc1ccccc1)C(=O)N[C@H](C(=O)N[C@@H](CCC(N)=O)C(=O)N[C@@H](Cc1c[nH]c2ccccc12)C(=O)N[C@@H](CC(C)C)C(=O)N[C@@H](CC(C)C)C(=O)N[C@@H](CC(N)=O)C(=O)N[C@H](C(=O)NCC(=O)NCC(=O)N1CCC[C@H]1C(=O)N[C@@H](CO)C(=O)N[C@@H](CO)C(=O)NCC(=O)N[C@@H](C)C(=O)N1CCC[C@H]1C(=O)N1CCC[C@H]1C(=O)N1CCC[C@H]1C(=O)N[C@@H](CO)C(N)=O)[C@@H](C)O)C(C)C)C(=O)O
fibrosis marker protein levels (LX-2 hepatic stellate cells; Western blot, measured: α-SMA, TGF-β, phospho-Smad2/3; concentration not given): decreased

O=[N+]([O-])c1ccc(Sc2nnc[nH]2)c2nonc12
downregulated proteins (Ramos; LFQ mass spectrometry; 10 µM, 8 h): 533 count

CC(=O)N[C@@H](Cc1c[nH]c2ccccc12)C(=O)N[C@@H](CCC(=O)O)C(=O)N[C@@H](C)C(=O)N[C@@H](CC(=O)O)C(=O)COC(=O)c1c(C)cccc1C
pyroptosis (THP-1 FKBP-caspase-4; LDH release; 10 µM, together with: B/B 50 nM): decreased

CCCCCCCCCCCCCCCC[P+](c1ccccc1)(c1ccccc1)c1ccccc1
GI50 (HCT-116; cell growth or viability; 72 h): 3.11 µM

CC[C@@]1(OC(=O)CCC(=O)NCCCC[C@H](NC(=O)[C@H](Cc2ccccc2)NC(=O)[C@H](Cc2ccccc2)NC(=O)CCSC2=C(/C=C/C3=[N+](C)c4ccccc4C3(C)C)CCC/C2=C\C=C2\N(C)c3ccccc3C2(C)C)C(=O)N[C@@H](CCCCNC(=O)CCCC[C@@H]2SC[C@@H]3NC(=O)N[C@@H]32)C(=O)O)C(=O)OCc2c1cc1n(c2=O)Cc2cc3ccccc3nc2-1
viability (4T1; CCK-8; 5 µM, 2 h then 24 h, together with: 808 nm laser 1 W/cm2 5 min; reference: untreated): 52.4%

CC[C@H](C)[C@H](NC(=O)[C@H](Cc1ccccc1)NC(=O)[C@@H](N)C(C)C)C(=O)N[C@@H](C)C(N)=O
viability (PC-12; Aβ42-induced neurotoxicity, inhibitor, MTT; concentration not given, 6 h, 37 °C, peptide to Aβ42 1:2, together with: Aβ42 2 µM; reference: untreated cells): 100%

CC(C)C[C@@H](N)C(=O)NCC(=O)N[C@H](C)C(=O)N[C@H](CO)C(=O)N[C@H](Cc1c[nH]c2ccccc12)C(=O)N[C@H](Cc1c[nH]cn1)C(=O)N[C@H](CCCNC(=N)N)C(=O)N1CCC[C@@H]1C(=O)N[C@H](CC(=O)O)C(=O)N[C@H](CCCCN)C(=O)N[C@H](CCCCN)C(=O)N[C@H](CCCNC(=N)N)C(=O)NCCCCCC(=O)N[C@@H](CCCCN)C(=O)N[C@@H](CCCNC(=N)N)C(=O)N[C@@H](CCCCN)C(=O)N[C@H](C(=O)N[C@@H](CC(N)=O)C(=O)N[C@@H](CC(N)=O)C(=O)N[C@@H](CC(N)=O)C(=O)N1CCC[C@H]1C(=O)N[C@@H](CCCNC(=N)N)C(=O)N[C@H](C(=O)N[C@@H](CS)C(N)=O)[C@@H](C)O)[C@@H](C)O
ERK phosphorylation (CHO cells expressing CXCR4; inhibitor, western blot; 50 µM, 30 min, together with: SDF-1α 12.5 nM): decreased

A few entries again:
CC[C@H]1OC(=O)[C@H](C(C)C)NC(=O)[C@H](C)OC(=O)[C@@H](C(C)C)NC(=O)[C@@H](C(C)C)OC(=O)[C@H](C(C)C)NC(=O)[C@H](C)OC(=O)[C@@H](C(C)C)NC(=O)[C@@H](C(C)C)OC(=O)[C@H](C(C)C)NC(=O)[C@H](C)OC(=O)[C@@H](C(C)C)NC1=O
G2/M phase cells (U-87 MG; PI staining flow cytometry; 0.8 µM, 12 h): 9%

CC=CCC(C)C(O)C1C(=O)NC(CC)C(=O)N(C)C(OCC)C(=O)N(C)C(CC(C)(C)O)C(=O)NC(C(C)C)C(=O)N(C)C(CC(C)C)C(=O)NC(C)C(=O)NC(C)C(=O)N(C)C(CC(C)C)C(=O)N(C)C(CC(C)C)C(=O)N(C)C(C(C)C)C(=O)N1C (centres unmarked)
preS1 binding (HepG2-hNTCP-C4; preS1 attachment to NTCP, inhibitor; 40 µM): decreased
